Results pooled from the literature.
Numbered parts are unrelated; each lists some results of a single study.

Set 1 — method: universal PBM; molecule type: double-stranded DNA, one strand shown; sample: in vitro; concentration: 600 nM; direction: higher = stronger binding; endpoint: E-score
Target: Sal-like protein 4, full length isoform A (SALL4, Homo sapiens, UniProt Q9UJQ4, residues 1-1053)
Sequence of UniProt Q9UJQ4 (whole entry, looked up): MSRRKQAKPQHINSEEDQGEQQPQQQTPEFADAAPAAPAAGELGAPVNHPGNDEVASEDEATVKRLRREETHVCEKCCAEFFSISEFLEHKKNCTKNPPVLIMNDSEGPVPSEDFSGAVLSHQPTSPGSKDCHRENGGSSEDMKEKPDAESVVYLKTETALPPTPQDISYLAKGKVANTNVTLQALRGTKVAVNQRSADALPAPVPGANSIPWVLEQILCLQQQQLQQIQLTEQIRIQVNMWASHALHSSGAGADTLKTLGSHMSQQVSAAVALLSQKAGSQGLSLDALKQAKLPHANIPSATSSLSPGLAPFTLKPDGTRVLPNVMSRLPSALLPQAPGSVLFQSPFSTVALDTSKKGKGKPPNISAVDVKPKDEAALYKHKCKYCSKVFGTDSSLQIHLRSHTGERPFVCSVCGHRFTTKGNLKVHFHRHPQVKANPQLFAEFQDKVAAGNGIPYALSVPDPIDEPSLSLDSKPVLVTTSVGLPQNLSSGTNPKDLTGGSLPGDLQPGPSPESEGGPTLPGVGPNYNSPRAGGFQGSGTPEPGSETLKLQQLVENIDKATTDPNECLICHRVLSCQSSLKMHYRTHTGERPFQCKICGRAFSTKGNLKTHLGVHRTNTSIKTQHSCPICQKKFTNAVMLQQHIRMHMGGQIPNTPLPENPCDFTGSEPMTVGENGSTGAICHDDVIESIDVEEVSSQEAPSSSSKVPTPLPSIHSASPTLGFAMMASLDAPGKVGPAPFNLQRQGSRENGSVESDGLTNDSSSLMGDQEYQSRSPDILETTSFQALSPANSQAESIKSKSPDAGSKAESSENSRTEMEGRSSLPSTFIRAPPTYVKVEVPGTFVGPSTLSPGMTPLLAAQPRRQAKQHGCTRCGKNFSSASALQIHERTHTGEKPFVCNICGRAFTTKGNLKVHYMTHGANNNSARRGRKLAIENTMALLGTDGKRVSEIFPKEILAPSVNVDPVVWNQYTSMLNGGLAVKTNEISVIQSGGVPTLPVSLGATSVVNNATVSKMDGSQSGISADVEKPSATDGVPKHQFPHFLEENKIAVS
Notes: 8-mer, flanks averaged, mean of replicates
CGAGGTTC: -0.054
TAGTTTGA: 0.176
CGCCGAAA: -0.0894
CGGGTAAG: -0.251
ATTTATTC: 0.358
AAGATAAC: 0.177
CAGGCAGA: 0.0104
ACAGTAAT: 0.246
AAAGCTAA: 0.133
CAGACCCG: -0.276
TAAGCTGA: 0.0302
CAAGTTTA: 0.161
AGACATCG: -0.155
TAACAACA: 0.231
CAACAGAA: 0.201
GATGCATA: 0.15
GTGGTTCA: 0.0482
CGATTATA: 0.328
CCATTTCC: 0.142
GTGTTTAA: 0.11
AGTAGACG: 0.0112
CTGTAGTC: -0.0431
ACAGTTTG: 0.0206
CCGGCCGC: -0.416
CATAAATG: 0.32

Set 2 — method: RNA Bind-n-Seq; molecule type: RNA; sample: in vitro; concentration: 365 nM; baseline: no-protein control; direction: higher = stronger binding; endpoint: RBNS enrichment (R)
Target: RNA binding protein fox-1 homolog 2, RRM domain, GST-SBP tag (RBFOX2, Homo sapiens, UniProt O43251-10, residues 100-194)
Notes: natural RNA segment, single round, ends assumed
All sequences stand within: GGGAGUUCUACAGUCCGACGAUC … UGGAAUUCUCGGGUGCCAA
CAUGGGCUCUAGCAUCUACUCCGCUACCCAAUUCUGUCAUCUCCAAGCUGAGUUUCCUCUUCUGAGGCAGAGGCUGGAGCAGUUCUUUUUCAGUUCUCAUCCUCUCCAUC: 0.632
AGGGCCAGUCCAGGCUGUCAGCCCAUGCAGCUGACACUGGUUGGUCUCUCAGUAUGUGGGAAAUCCAGGCAAGUUUUAGAAUGUCCUAAAUUGAGCUAUUUUCACUUACU: 0.377
GAUUUGGAUAGAGAAUACUAUUUCCAAAGUAGUGUUUAGCUCAUCUAGGGGGAUGUGUUUAUAUAUACAUUUGCAUAUACCCACGGGGGAUUAUGAGCUAAUUUUUUUUA: 0.703
CCUGUGACUUCCACCUUGGGUUUAGUAAUGGGAGCUUGAGAUUGGAGAGCUGAGUCCUCUGUGGGUUCUGUAUUUAUCCAUUUGGCUUGAAGCUUUGUUUAUAUAUCGGC: 0.734
UCUCCAUUCUCCAUGUCCAAAAACUUGCUGUCAGUCCAGUUUUUAAUCAGUUUUCUCCUUGAGGCUUGAUCUCCCAUUUCUCUCAUCCCAUUAUAGCUUUUCAUGUAGAU: 0.651
GCUCACACCAUGCUAUUUAAUUUUUAAAGUAACUUUUCAGAAAAUAUUACUGGCGUUUUGUUCAUUUUAAGACUGUUAACAUGAAGAAAAGUGUGCUAGAACUUUUUAAA: 0.529
AGUUGUGUCUCUUUGGGAAUUGGAUUUGAUUUUUAUUAUUUAAUACCUCACUUUGGCCCGUCCCCCCUCCCAACACUUCUGUAUCCUCGCCCUGCCGCCCCAGCCUGGAC: 0.533
GUUAUGGGUGGAUCGCAGCUCUUCGCCAUCAAGUGCAUUCAGGAUUAUUCCUGGGAGGUUGCUUAAAGCUGAAAUAGAACUGAAAUGCAGUUGGUAGACUAGCCAAACAU: 1.36
UGCGGCCAGGCUGAGCUCUGCCCCCAACUUUGUUUUCUCUCAUGUUCUCAAUACACUCUGCCUCAAAUCCGUCUUGCUUCUUUCUUUCUUCCGUGCUGCUAGGGGUCAGG: 1.24
AGGCACAACAGUCAUUACAAAUCUUUAUUCUGUUCACUUUGAUGAAAAGUACUGGAAAGAUCCAGACAUGUUCUAUCCUGAGCGAUUUCUGGACAGCAAUGGAUAUUUUA: 0.376
UCUACAUGUCUGCUUGAGAUAUUUCCUCAGCCUGAAAGUUUCCCCAACCAUCUGCCAGAGAACUCCUAUGCAUCCCUUAGAACCCUGCUCAGACACCAUUACUUUUGUGA: 20.1
UCACCUUUGCAAAGUUAUAGAGGAACCUGCCCUGGUACAUCUUUAAUAUUAGGAUUCUGUUUUCUACAUUGCAAGCACAGGCACCCAUAGUACACUUUUGUUGAAGUUAC: 0.444

Set 3 — method: RNA Bind-n-Seq; molecule type: RNA; sample: in vitro; concentration: 200 nM; notes: whole 134-nt RNA, ends assumed; with: 150 mM KCl; baseline: input library; direction: higher = stronger binding; endpoint: log2 enrichment
Target: Fragile X messenger ribonucleoprotein 1, C-terminal low-complexity region (Fmr1, Mus musculus, UniProt P35922)
All sequences stand within: GGGAGUUCUACAGUCCGACGAUC … UGGAAUUCUCGGGUGUCAAGG
CUCAAGUCCUGUGCUACACAUCGUAUGUACCGAAUCGGUUUGGAAAGGAAAGGAAAGUAUUAUGUUACGCCGUUCGGAUCUGCACUUCCA: -0.0274
GUCCUGUGCUACACAUCGUAUGUACCGAAUCGGGGAGGGGAAAGGGGUUUUUUUGGGGAAAGUAUUAUGUUACGCCGUUCGGAUCUGCAC: 0.562
UUUAAGAGCAGCCAGGGAGAUAGUGGCGUUGACUUGAGUGCCGAGUCUCGGGAGUCGUCUGCGACCUCCUCGCAGCGCAGCUCCCCAUAU: 0.687
GUCCUGUGCUACACAUCGUAUGUACCGAAUCGGGCCCCCCGGCCCCCCGGGCCCCCCGGAAAGUAUUAUGUUACGCCGUUCGGAUCUGCA: -0.176
CUCAAGUCCUGUGCUACACAUCGUAUGUACCGAAUCGGGGCGGGGCGGGCGGGGAAAGUAUUAUGUUACGCCGUUCGGAUCUGCACUUCC: 1.14
CCCAGACAACACGCACCCACACAGACACAGAGGGAAGGGGUUGGGAUGGGGACAGGGUGCACAGCAGGGCGGGGUAGGACCCCAGCCCCU: 1.35
CCUCAAGUCCUGUGCUACACAUCGUAUGUACCGAAUCGGGCGGGGCGGGCGGAAAGUAUUAUGUUACGCCGUUCGGAUCUGCACUUCCAG: 0.655
AAGUCCUGUGCUACACAUCGUAUGUACCGAAUCGGGGAAAGGGGUGGGGAAAGGGGAAAGUAUUAUGUUACGCCGUUCGGAUCUGCACUU: 0.617
GCAGGAAGUAAAAACAAAUGGAAAUGCUUCGGAUAGUGGCAGGGGUGGGGGUUGCUAACGAAAGGGUGGGAUGGGAGUGGGUAAAGAGUU: 0.24
GCAGGAAGUAAAAACAAAUGGAAAUGCUUCGGAUAAAGGCAGGGGUGGGGGUUGCUAAGGAAAGGGUGGGAUGGGAGUGGGUAAAGAGUU: 0.443
CUCAAGUCCUGUGCUACACAUCGUAUGUACCGAAUCGGAAAAAAAGGAGGUGGAAAGUAUUAUGUUACGCCGUUCGGAUCUGCACUUCCA: -0.175
GUCCUGUGCUACACAUCGUAUGUACCGAAUCGGGCCCCCGGCCCCCGGGGCCCCCGGGGAAAGUAUUAUGUUACGCCGUUCGGAUCUGCA: -0.996
AUGGACUUGCACAUGAUGAACUGUGAACUUCUAGCCACAUGUAGUGCCCUUGGGUACUUGGAGGGAGACACUUACCAUAAGGAACCAGAU: -0.925
UCCUGUGCUACACAUCGUAUGUACCGAAUCGGGGUUUUUUUGGGGUUUGGGGUUUGGGGAAAGUAUUAUGUUACGCCGUUCGGAUCUGCA: 0.975

Set 4 — method: protein-binding microarray; molecule type: double-stranded DNA, one strand shown; sample: in vitro; concentration: 2200 nM top; notes: 60-bp whole probe; with: salmon DNA 0.4 mg/ml; baseline: random background probes; direction: higher = stronger binding; endpoint: fitted relative affinity; all sequences stand within: GCCTAGCAC … GTCTTGATTCGCTTGACGCTGCTG
Target: Interferon regulatory factor 7, full length, phosphomimetic (IRF7, Homo sapiens, UniProt Q92985, residues 1-503, S471D/S472D/S475D/S476D/S477D/S483D/S484D/S487D)
Target sequence (chain): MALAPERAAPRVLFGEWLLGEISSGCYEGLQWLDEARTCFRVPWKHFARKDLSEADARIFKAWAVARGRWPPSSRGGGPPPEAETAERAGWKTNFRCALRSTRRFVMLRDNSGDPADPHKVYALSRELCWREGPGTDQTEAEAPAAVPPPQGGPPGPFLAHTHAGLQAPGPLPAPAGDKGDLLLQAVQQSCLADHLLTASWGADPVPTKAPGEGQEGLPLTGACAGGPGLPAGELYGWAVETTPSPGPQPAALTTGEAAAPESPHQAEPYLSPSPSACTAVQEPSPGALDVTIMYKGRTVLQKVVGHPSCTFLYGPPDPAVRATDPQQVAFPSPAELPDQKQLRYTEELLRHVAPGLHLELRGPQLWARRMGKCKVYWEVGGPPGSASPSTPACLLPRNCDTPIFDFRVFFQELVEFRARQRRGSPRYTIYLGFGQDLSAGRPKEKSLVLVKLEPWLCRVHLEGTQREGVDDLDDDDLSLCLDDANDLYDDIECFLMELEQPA
TTAGGACTCGACTATCGGTTAGTGCTA: -0.0446 z-score
AACGGTTCCCTTTTCCTGACGTGCTAG: 2.65 z-score
GACGATATCGGGTTTCGAGCCGTGCTA: 1.06 z-score
TCATATTCATATATATAACTGTGCTAG: 1.24 z-score
CTAGATTTCGGGACTGGATTAGTGCTA: 1.36 z-score
GACGGTCTCGCACTGGGGACGTGCTAG: -0.3 z-score
GACGAGATCGGGTTTCGAGACGTGCTA: 1.42 z-score
GACGGTATCGACTATCGGGCCGTGCTA: -0.285 z-score
ATGGCAAAAAAAAAAGATTTGTGCTAG: -1.79 z-score
TCAGTTTCCTCTTTCACACTGTGCTAG: 5.92 z-score
TTAGGTTTCGGGACTCGGTTAGTGCTA: 4.7 z-score
TTAGATATCGGGTTTCCATTAGTGCTA: 1.17 z-score
GACGAACTGGGGACTGGAGATGTGCTA: -0.324 z-score
TTAGATTCCAGTTTCGAGTAGTGCTAG: 4.51 z-score
TCACTTTGCCTTTTGCTACTGTGCTAG: 3.86 z-score
TCAAGGTTCAAGTTTACCACTGTGCTA: -0.0222 z-score
CCTAGTTTTACTTTCTATGTGTGCTAG: 3.93 z-score
TTAGATATCAGTATCGAATAGTGCTAG: -0.12 z-score
TTAGGTATCGGGTATCAGTTAGTGCTA: 0.513 z-score
TTAGGTTTTCTTTCCCTTTAGTGCTAG: 3.73 z-score
TAAGATTTCGGGACTGGATTAGTGCTA: 0.611 z-score
TTAGGATTGCTTATCCTTTAGTGCTAG: 0.373 z-score
TTAGATTTCAGTATCGTTTAGTGCTAG: 1.17 z-score
TTAGCTTTCCTTCTCCTTTAGTGCTAG: 2.81 z-score
GACGAACTGAGCATCGAGACGTGCTAG: -0.0955 z-score

Repeated from above (set 1):
CGAGGTTC: -0.054
TAGTTTGA: 0.176
CGCCGAAA: -0.0894
CGGGTAAG: -0.251
ATTTATTC: 0.358
AAGATAAC: 0.177
CAGGCAGA: 0.0104
ACAGTAAT: 0.246
AAAGCTAA: 0.133
CAGACCCG: -0.276
TAAGCTGA: 0.0302
